Assay results gathered from unrelated publications.
Compare with care: the assays were run in different laboratories.
UCHL1: Ubiquitin carboxyl-terminal hydrolase isozyme L1 (UCHL1, Homo sapiens, UniProt P09936)
Sequence of UniProt P09936 (whole entry, looked up): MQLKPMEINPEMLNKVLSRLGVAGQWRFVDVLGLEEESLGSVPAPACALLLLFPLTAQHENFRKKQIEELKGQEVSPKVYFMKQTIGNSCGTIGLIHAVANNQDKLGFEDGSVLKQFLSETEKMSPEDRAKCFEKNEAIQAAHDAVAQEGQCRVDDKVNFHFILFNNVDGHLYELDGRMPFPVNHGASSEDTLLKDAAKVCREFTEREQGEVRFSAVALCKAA

CC(C)(C)c1ccc(C(CC(=O)O)NC(=O)c2cc([N+](=O)[O-])ccc2Cl)cc1 (centres unmarked) — labelling (UCHL1; covalent, intact protein LC-MS; 12.5 µM): 11.3%
CCCC1CCC(c2ccc(-c3ccc(CC)cc3)cc2)CC1 (centres unmarked) — mean serum concentration (human mother-newborn pairs, maternal serum): 0.31 ng/mL
C=CC(=O)N(C)CCOc1c(N)ncnc1-c1cc(F)cc(NC(=O)c2ccc(C3CC3)cc2F)c1C — mean residence time (human, whole blood; oral, 200 mg, single ascending dose): 3.62 h
CC(NC(=O)C(C#N)=Cc1ccc(-c2ccccc2)cc1)c1ccccc1 (centres unmarked) — labelling (UCHL1; covalent, intact protein LC-MS; 12.5 µM): 27.2%
CCCCc1ccc(C#Cc2ccc(OCC)cc2)cc1 — mean serum concentration (human mother-newborn pairs, female fetuses, cord serum): 0.35 ng/mL
Cn1cc(-c2cn3nccc3c(-c3cnn([C@]4(CC#N)C[C@@H](C#N)C4)c3)n2)cn1 — mean residence time (healthy humans fasted, plasma; 100 mg single dose, geometric mean): 21.2 h
CCc1ccc(-c2ccc(-c3cc(F)c(F)c(F)c3)c(F)c2)cc1 — mean serum concentration (human mother-newborn pairs, cord serum): 0.49 ng/mL
Cc1ccc(Sc2ccccc2N2CCNCC2)c(C)c1 — mean half-life (healthy male humans fed, plasma; oral, 10 mg single, high-fat breakfast): 68.1 h
N#Cc1ccc2c(c1)[C@H]1CCCN(C(=O)c3ccc4[nH]cnc4c3)[C@H]1C2 — mean ACTH level (human; 10 mg, day 7): 6.3 pmol/L
C[C@@H](O)CCOC(=O)C[C@@H](C)O — mean arterial pressure (human; oral drink, dose not given, 240 min post dose, mean): 84 mmHg
Cc1ccc(O)c(-n2nc3ccccc3n2)c1 — mean daily dermal uptake (exposure assessment; human, age 21-60 years; spray sunscreen): 878 ng/kg body weight/day

Excerpt of the above:
CCCCc1ccc(C#Cc2ccc(OCC)cc2)cc1 — mean serum concentration (human mother-newborn pairs, female fetuses, cord serum): 0.35 ng/mL
CCc1ccc(-c2ccc(-c3cc(F)c(F)c(F)c3)c(F)c2)cc1 — mean serum concentration (human mother-newborn pairs, cord serum): 0.49 ng/mL
